Published values gathered from unrelated publications.
Every numbered part comes from another study and shows a few of its results, in no order.
UniProt P36894, sequence (whole entry, looked up): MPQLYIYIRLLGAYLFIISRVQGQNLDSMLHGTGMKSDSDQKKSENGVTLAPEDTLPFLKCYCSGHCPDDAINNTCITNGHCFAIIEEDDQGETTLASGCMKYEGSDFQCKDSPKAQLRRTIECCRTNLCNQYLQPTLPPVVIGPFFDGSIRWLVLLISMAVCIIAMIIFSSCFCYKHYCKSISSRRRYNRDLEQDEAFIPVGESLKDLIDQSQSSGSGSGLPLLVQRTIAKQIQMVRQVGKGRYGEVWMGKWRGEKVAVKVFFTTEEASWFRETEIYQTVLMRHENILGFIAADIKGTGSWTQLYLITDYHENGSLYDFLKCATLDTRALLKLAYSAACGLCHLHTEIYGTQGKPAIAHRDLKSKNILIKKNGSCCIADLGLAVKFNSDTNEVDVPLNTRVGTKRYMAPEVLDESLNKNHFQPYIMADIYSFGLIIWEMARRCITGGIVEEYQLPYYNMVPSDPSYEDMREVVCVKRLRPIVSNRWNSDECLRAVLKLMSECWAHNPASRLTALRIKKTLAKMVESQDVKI
UniProt Q13557, sequence (whole entry, looked up): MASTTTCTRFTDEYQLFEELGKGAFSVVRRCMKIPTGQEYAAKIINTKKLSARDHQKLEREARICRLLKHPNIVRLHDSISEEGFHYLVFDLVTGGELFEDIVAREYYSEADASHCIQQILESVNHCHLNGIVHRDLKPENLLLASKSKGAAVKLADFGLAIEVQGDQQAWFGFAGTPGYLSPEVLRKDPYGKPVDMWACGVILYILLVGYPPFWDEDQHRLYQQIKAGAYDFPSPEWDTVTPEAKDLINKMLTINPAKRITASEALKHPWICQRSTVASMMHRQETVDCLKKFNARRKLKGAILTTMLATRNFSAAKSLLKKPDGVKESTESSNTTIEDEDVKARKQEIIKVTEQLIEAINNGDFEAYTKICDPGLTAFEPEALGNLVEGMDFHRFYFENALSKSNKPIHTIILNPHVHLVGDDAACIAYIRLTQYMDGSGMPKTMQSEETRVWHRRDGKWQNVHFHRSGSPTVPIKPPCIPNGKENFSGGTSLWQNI
UniProt P51813, sequence (whole entry, looked up): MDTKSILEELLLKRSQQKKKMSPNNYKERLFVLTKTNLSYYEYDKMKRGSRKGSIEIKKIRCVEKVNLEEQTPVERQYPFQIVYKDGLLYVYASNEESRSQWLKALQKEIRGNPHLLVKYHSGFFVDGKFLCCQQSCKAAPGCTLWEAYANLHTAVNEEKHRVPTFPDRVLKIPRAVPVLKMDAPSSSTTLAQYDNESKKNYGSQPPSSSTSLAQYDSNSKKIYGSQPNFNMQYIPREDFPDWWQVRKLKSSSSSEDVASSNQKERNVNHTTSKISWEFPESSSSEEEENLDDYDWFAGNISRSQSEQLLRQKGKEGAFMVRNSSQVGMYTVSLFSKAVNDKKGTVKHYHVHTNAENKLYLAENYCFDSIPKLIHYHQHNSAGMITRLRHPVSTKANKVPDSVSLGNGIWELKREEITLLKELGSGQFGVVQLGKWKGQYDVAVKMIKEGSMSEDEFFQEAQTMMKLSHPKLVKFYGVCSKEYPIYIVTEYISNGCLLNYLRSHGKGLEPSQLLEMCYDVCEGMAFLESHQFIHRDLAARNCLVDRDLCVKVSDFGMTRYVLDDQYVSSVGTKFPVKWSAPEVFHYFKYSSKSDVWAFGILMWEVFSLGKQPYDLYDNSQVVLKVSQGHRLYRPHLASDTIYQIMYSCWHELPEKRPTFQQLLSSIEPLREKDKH
UniProt O75582, sequence (whole entry, looked up): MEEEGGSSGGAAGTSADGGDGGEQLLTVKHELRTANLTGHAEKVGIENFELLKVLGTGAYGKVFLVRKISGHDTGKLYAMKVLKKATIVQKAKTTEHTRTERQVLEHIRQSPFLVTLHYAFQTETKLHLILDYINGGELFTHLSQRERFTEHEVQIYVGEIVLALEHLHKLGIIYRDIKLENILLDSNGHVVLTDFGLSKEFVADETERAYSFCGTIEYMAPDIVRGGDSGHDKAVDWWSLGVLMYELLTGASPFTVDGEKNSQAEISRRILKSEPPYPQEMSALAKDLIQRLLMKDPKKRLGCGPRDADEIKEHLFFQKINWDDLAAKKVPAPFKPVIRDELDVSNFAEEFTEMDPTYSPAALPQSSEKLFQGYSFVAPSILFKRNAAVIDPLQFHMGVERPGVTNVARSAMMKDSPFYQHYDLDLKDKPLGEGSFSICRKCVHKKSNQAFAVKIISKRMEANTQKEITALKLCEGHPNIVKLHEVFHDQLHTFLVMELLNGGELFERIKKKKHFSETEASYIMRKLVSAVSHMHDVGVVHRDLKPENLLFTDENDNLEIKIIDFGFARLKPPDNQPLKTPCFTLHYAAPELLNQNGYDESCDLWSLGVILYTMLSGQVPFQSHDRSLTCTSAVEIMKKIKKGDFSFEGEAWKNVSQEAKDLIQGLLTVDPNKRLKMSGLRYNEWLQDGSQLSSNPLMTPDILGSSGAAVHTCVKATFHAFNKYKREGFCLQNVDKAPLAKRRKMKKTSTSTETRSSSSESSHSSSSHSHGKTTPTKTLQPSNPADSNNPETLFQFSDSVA
UniProt P00519, sequence (whole entry, unmodified, looked up): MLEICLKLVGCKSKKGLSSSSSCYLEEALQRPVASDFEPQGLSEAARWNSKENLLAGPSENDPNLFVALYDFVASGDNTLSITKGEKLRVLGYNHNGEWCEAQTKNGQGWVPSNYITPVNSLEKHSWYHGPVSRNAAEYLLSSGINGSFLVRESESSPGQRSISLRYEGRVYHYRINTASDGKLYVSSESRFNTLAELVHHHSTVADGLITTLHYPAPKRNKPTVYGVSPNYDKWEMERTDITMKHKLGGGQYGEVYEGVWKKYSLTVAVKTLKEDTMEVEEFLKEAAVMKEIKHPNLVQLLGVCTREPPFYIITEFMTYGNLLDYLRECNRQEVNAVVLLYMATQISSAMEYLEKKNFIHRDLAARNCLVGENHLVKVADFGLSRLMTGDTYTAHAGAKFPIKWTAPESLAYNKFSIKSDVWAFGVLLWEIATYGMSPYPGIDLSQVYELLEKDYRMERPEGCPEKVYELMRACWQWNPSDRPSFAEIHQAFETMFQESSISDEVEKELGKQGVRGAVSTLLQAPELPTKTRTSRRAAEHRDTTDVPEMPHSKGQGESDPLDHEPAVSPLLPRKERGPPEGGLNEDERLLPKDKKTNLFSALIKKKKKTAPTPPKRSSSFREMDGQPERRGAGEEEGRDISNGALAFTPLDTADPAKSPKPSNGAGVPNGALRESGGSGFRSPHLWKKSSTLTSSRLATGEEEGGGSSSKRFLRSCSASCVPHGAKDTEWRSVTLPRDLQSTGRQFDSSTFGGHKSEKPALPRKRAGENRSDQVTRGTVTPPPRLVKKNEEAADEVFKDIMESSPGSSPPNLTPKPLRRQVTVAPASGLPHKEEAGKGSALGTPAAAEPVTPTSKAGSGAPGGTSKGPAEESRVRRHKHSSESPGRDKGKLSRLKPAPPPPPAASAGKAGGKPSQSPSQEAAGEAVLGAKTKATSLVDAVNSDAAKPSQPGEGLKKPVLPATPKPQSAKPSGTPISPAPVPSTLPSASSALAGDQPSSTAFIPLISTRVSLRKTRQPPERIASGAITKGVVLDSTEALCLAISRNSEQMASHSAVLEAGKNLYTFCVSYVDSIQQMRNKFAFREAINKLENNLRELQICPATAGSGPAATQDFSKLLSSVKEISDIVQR
UniProt Q16659, sequence (whole entry, looked up): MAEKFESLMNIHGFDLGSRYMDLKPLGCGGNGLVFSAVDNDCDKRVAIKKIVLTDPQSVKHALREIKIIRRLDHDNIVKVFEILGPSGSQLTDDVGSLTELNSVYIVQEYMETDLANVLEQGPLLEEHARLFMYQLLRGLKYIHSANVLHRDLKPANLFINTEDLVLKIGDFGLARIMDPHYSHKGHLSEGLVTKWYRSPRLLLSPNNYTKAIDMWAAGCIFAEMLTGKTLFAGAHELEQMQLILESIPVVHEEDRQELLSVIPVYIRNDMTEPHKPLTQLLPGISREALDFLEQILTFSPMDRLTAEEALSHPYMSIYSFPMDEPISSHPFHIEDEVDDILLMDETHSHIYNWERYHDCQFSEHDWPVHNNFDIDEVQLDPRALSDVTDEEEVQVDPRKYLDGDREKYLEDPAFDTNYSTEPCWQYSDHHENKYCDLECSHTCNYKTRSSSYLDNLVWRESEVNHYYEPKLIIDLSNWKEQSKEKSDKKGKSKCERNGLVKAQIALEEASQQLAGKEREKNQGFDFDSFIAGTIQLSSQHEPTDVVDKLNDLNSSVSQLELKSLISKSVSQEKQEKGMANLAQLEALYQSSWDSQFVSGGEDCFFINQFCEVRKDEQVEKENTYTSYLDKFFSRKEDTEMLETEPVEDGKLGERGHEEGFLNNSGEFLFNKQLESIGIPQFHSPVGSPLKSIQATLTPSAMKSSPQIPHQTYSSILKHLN

Block 1
Compound: COCCOc1nc(-c2ccc(Cl)nc2)nc2c1CN(C(=O)c1ncn3ccccc13)CC2
Read-out: cell-free assay
Technique: competition with immobilised ligand
Concentration: 0.1 µM
| target | remaining binding [%] |
| --- | --- |
| 5'-AMP-activated protein kinase catalytic subunit alpha-2 (PRKAA2, Homo sapiens, UniProt P54646) | 100 |
| Serine/threonine-protein kinase B-raf (BRAF, Homo sapiens, UniProt P15056, V600E) | 100 |
| Bone morphogenetic protein receptor type-1A (BMPR1A, Homo sapiens, UniProt P36894) | 82 |
| Calcium/calmodulin-dependent protein kinase type II subunit beta (CAMK2B, Homo sapiens, UniProt Q13554) | 100 |
| Myosin-IIIa (MYO3A, Homo sapiens, UniProt Q8NEV4) | 100 |
| Maternal embryonic leucine zipper kinase (MELK, Homo sapiens, UniProt Q14680) | 65 |
| Cytoplasmic tyrosine-protein kinase BMX (BMX, Homo sapiens, UniProt P51813) | 100 |
| Tyrosine-protein kinase Fer (FER, Homo sapiens, UniProt P16591) | 100 |
| Ribosomal protein S6 kinase alpha-5, C-terminal kinase domain (RPS6KA5, Homo sapiens, UniProt O75582) | 100 |
| Tyrosine-protein kinase ABL1, non-phosphorylated (ABL1, Homo sapiens, UniProt P00519, F317L) | 100 |
| Receptor-type tyrosine-protein kinase FLT3 (FLT3, Homo sapiens, UniProt P36888, F691L/ITD) | 64 |
| Dual specificity tyrosine-phosphorylation-regulated kinase 1B (DYRK1B, Homo sapiens, UniProt Q9Y463) | 83 |
| Calcium/calmodulin-dependent protein kinase type II subunit delta (CAMK2D, Homo sapiens, UniProt Q13557) | 100 |
| Calcium/calmodulin-dependent protein kinase type 1B (PNCK, Homo sapiens, UniProt Q6P2M8) | 100 |
| Ephrin type-A receptor 8 (EPHA8, Homo sapiens, UniProt P29322) | 100 |
| Mitogen-activated protein kinase 6 (MAPK6, Homo sapiens, UniProt Q16659) | 100 |

Block 2
Host: human
Sample: microsomes or S9
Concentration: 2 µM
Time: 0.5 h
| SMILES | remaining compound |
| --- | --- |
| Clc1ccc(OCCn2cnc(Cl)c2Cl)cc1 | 49.1% |
| CCN(CC)/C(=N\S(=O)(=O)c1ccccc1C)c1ccccc1 | 6.62% |
| Cc1c2c(=O)[nH]cnc2c(C(=O)c2ccccc2)n1-c1ccccc1 | 12.8% |
| Oc1ccccc1O/C(=C/n1ccnc1)c1ccccc1 | 87.4% |
| CCCc1nnc(-c2cc3ccccc3n2Cc2ccccc2)o1 | 39% |
| Cc1cc(-c2ccc(S(=O)(=O)N3CCOc4ccccc43)s2)n[nH]1 | 5.14% |
| Cc1nn(C)cc1-c1cncn1C(C)Cc1c(C)nn(C)c1C (centres unmarked) | 89.9% |

Block 3
Cell line: mouse MPNST tumor cells
Technique: high-content immunofluorescence imaging
Item: nuclear SOX9
Concentration: 10 µM
Time: 12 h
Setting: mean of 2 replicates
Reference: DMSO control
Direction: higher = more nuclear SOX9
| Compound | nuclear SOX9 intensity |
| --- | --- |
| O=C(c1cc(S(=O)(=O)Nc2ccccc2F)c(F)cc1Cl)N1CCN2CCC[C@@H]2C1 | 88.6 % of DMSO |
| CCC(=O)[C@@]1(C)[C@H](C)C[C@H]2[C@@H]3CCC4=CC(=O)C=C[C@]4(C)[C@H]3[C@@H](O)C[C@@]21C | 77.9 % of DMSO |
| O=C(CCCCCCCn1cc(-c2cccnc2)nn1)Nc1ccccc1-c1ccccc1 | 122 % of DMSO |

Block 4
Target: Tyrosine-protein kinase Srms (SRMS, Homo sapiens, UniProt Q9H3Y6)
UniProt Q9H3Y6, sequence (whole entry, looked up): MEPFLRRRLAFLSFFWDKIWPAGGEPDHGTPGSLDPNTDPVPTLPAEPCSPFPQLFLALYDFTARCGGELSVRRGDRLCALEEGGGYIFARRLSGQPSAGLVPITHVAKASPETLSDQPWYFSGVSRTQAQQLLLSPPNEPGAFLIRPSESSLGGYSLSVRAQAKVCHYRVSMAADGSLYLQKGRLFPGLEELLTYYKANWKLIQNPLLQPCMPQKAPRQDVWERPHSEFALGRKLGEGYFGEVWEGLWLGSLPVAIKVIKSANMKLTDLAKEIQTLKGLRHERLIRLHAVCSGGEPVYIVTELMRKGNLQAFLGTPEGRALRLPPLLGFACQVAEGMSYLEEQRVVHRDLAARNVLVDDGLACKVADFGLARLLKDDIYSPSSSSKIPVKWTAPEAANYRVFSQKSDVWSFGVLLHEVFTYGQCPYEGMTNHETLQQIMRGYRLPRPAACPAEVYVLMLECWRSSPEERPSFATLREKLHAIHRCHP
Read-out: enzyme activity
Mode: inhibitor
Concentration: 0.5 µM
Reference: control
| SMILES | remaining activity [%] |
| --- | --- |
| CCC(=O)Nc1ccc2ncnc(Nc3cccc(Br)c3)c2c1 | 99.4 |
| O=C1NC(=O)/C(=C/c2ccc3nccnc3c2)S1 | 96.6 |
| COc1cc2ncnc(N3CCN(C(=O)Nc4ccc(Oc5ccccc5)cc4)CC3)c2cc1OC | 93.6 |

Mixed results
| SMILES | tested on | test | system | conditions | scale | endpoint | result |
| --- | --- | --- | --- | --- | --- | --- | --- |
| C[N+](C)(C)CC(=O)O | HaCaT | – | – | 100 µM, 60 h | – | viability | 140% |
| C[C@@H]1OCC2(CCN(c3cnc(Sc4ccnc(N)c4Cl)c(N)n3)CC2)[C@@H]1N | – | immunoblot, item: phospho-ERK | Ba/F3 NRAS G12C, Mus musculus | 1 µM | reference: DMSO | ERK phosphorylation | 74% |
| C[C@H](CCC(=O)NCCS(=O)(=O)O)[C@H]1CC[C@H]2[C@@H]3[C@@H](O)C[C@@H]4C[C@H](O)CC[C@]4(C)[C@H]3CC[C@]12C | HaCaT | – | – | 100 µM, 60 h | – | viability | 119% |
| CC(C)n1cnc(-c2ccc(F)cc2)c1-c1ncc(C(=O)Nc2ccc(N3CCN(C)CC3)cc2)[nH]1 | – | – | IPF patients | 30 mg once daily, week 0 to 12 | – | acute exacerbation incidence | 0% |
| Cc1c(Nc2ncccc2C(=O)O)cccc1C(F)(F)F | HaCaT | – | – | 100 µM, 60 h | – | viability | 117% |
| O=C(OC[C@H]1O[C@@H](OC(=O)c2cc(O)c(O)c(OC(=O)c3cc(O)c(O)c(O)c3)c2)[C@H](OC(=O)c2cc(O)c(O)c(OC(=O)c3cc(O)c(O)c(O)c3)c2)[C@@H](OC(=O)c2cc(O)c(O)c(OC(=O)c3cc(O)c(O)c(O)c3)c2)[C@@H]1OC(=O)c1cc(O)c(O)c(OC(=O)c2cc(O)c(O)c(O)c2)c1)c1cc(O)c(O)c(OC(=O)c2cc(O)c(O)c(O)c2)c1 | A-375 | – | – | 100 µM, 60 h | – | viability | 25.1% |
